Results collected from several papers.
Numbered parts are unrelated; each lists some results of a single study.

Series 1
Target: Sal-like protein 4, full length isoform B (SALL4, Homo sapiens, UniProt Q9UJQ4-2, residues 1-616)
Method: universal PBM
Molecule type: double-stranded DNA, one strand shown
Medium: in vitro
Concentration: not given
Notes: 8-mer, flanks averaged, mean of replicates
Direction: higher = stronger binding
Strand | E-score
TAATCGAA | 0.159
ACGAGAGA | -0.00404
AGGAGATA | 0.0139
AGGACTGC | -0.358
ACGGGCTC | -0.347
ATCCAGCA | 0.0575
CATTAATA | 0.399
TCCTCCGA | -0.257
GACATGTC | 0.0485
GTATCACA | 0.083
CTGCGTAA | 0.0481
CCTAGAGG | -0.212
ACAGACGT | -0.0322
ACCAGCAG | -0.25
CTTAGCTA | -0.0158
ATGGGATG | -0.106
CTGTCCCA | -0.0606
TCACGGAA | 0.102
GCTGTACC | -0.247

Series 2
Target: RING finger protein unkempt homolog, zinc fingers 1-6, GST-SBP tag (UNK, Homo sapiens, UniProt Q9C0B0, residues 30-357)
Method: RNA Bind-n-Seq
Molecule type: RNA
Medium: in vitro
Concentration: not given
Notes: RNA with constant flanks, human and mouse sites, ends assumed
Relative to: input RNA pool
Direction: higher = stronger binding
Constant ends, left off below: GGGAGUUCUACAGUCCGACGAUC … CAACAGAGGAUUGAGCAUCA
Residues (chain): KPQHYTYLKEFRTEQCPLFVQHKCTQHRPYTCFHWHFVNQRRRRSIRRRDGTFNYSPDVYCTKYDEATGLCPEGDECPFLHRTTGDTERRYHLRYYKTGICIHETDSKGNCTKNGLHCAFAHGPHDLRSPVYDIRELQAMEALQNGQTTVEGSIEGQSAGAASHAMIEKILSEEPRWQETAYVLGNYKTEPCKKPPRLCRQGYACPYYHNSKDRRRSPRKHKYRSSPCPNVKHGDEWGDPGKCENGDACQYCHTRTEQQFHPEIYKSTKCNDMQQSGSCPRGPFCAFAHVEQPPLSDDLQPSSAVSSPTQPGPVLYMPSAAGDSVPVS
Strand | bound/input enrichment
UUCCACCCCUGGGCCAUGAAUGGUGAUGAGUCAGUGCUACUGGACAUCAUCAAGGAGAAAGAUGCUGUGGAGAAGCCCAUUCUUUCAUCCGAAGAGUUGGCAGGCCCUGUGAAUUGUGAA | 0.18 ratio
AAUUUGAUCUGGCUUCCAUUUGUCCCCCUCAUUUCCCAAAUGUUUAAAUGUAUUGGAUUUGGAUUCUCAAUGUAUAAGUUGCCUUAUCUGUUAAUGUCUAUCUUCUGUCUCUUUAAUUUU | 0.966 ratio
GGUGGCAAGGCCAAGAAGAAGAAGUGGUCCAAAGGCAAAGUUCGGGACAAGUUGAACAAUCUUGUCCUGUUCGACAAAGCGACAUACGACAAGCUCUGUAAGGAGGUUCCGAACUAUAAG | 0.182 ratio
UAUUUAUGUCAAUAUUGUGAAUAUUCAACAGGACAAAUUGAAGAUCUUAAAAUUCAUCUAGAUUUCAAGCAUUCAGCUGACUUGCCUCAUAAAUGUAGUGACUGCUUGAUGAGGUUUGGA | 0.429 ratio
GAGUUCCGAUCUGGAAAGGCUCCUAUCCUCAUUGCCACGGAUGUAGCCUCCCGUGGGCUAGAUGUGGAAGAUGUCAAGUUUGUCAUCAACUACGAUUAUCCAAACAGCUCAGAGGAUUAU | 0.0983 ratio
CAUUGUAUGUUGAUGAGUUGAUUAAGUCUAACAGAUUCAUCAAGACUCCAUUGCUUUAUUAUAGAGACAUUUGAAAAUAUCCAUUAAUGUGAAUAUCACCUGAAUUCAGUCUGUUUGGUG | 2.83 ratio
CAACAGGCUGGCCAUGAUGAAGGGGUUCUGGAUCGUUUGGUAGAUAGGAGGGAACGGCCAUUAGAAGGUGGCCGAACAAAUUCCAAUAACAACAACAGCAAUCCAUGUUCAGAACAAGAU | 0.173 ratio
UCAGACAUCUAUGUGUGCAUGAUCUCCUAUGCGCACAACGUGGCCGCACAGGGCAAAUACAUCGCCAUUGCCAGCACCACUGUAGAGACUGCAGAACCAGAAAAGGAAGUUGAGCCUGCA | 0.21 ratio

Series 3
Target: Histone acetyltransferase KAT6A, winged helix 1, GST fusion (KAT6A, Homo sapiens, UniProt Q92794, residues 1-85)
Method: protein binding microarray
Molecule type: double-stranded DNA, one strand shown
Medium: in vitro
Concentration: not given
Notes: 8-mer, flanks averaged, mean of 2 arrays, mostly near background
Relative to: not given
Direction: higher = stronger binding
Target sequence (chain): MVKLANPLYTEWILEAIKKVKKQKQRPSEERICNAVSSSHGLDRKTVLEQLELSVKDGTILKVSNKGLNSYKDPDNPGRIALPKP
Strand | E-score
GTCCCAAC | -0.138
AGGCTCAG | -0.189
AGGATCAT | -0.226
CGGGATCC | 0.364
GTCATGAA | -0.079
ATGCCTGC | -0.0551
ACTTTTGG | -0.0912
GAATGATC | -0.0942
AACAGTCG | 0.0349
ACCTAGAG | -0.0357
AGAACTTC | -0.148
CTACGTCC | 0.0518
CGCAAAAC | 0.252
CAACATCG | 0.133
CGGGGGCA | 0.194
CGAGTGCG | 0.236
ATTCTGAG | -0.168
ATAACGAA | -0.217
ACACATAT | -0.168
ACGAAGCT | -0.119
TGGGAGAA | -0.288
CCTGATAC | -0.0599
CCGACTAG | 0.078
GACGCGTA | 0.343
ATTATGAG | -0.138

Series 4
Target: Ras GTPase-activating protein-binding protein 1, C-terminal RGG region (G3BP1, Homo sapiens, UniProt Q13283)
Chain of UniProt Q13283 (whole entry, looked up): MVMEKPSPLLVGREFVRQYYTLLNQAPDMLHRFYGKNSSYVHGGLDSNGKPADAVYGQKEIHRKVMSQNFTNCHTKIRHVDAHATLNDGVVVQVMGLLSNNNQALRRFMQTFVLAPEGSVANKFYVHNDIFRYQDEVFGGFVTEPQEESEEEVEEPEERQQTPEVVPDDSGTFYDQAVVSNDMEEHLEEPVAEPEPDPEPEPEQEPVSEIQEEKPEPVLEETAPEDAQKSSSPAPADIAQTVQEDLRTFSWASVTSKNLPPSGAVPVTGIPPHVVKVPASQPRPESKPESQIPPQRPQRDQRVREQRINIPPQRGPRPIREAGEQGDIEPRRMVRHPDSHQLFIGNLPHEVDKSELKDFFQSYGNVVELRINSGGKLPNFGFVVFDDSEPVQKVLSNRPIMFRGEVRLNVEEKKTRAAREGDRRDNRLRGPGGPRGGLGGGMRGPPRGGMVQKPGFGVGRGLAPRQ
Method: RNA Bind-n-Seq
Molecule type: RNA
Medium: in vitro
Concentration: 1 µM
Notes: whole 134-nt RNA, ends assumed
Together with: 150 mM KCl
Relative to: input library
Direction: higher = stronger binding
Constant ends, left off below: GGGAGUUCUACAGUCCGACGAUC … UGGAAUUCUCGGGUGUCAAGG
Strand | log2 enrichment
AAGUCCUGUGCUACACAUCGUAUGUACCGAAUCGGAAAAAAAGGUUUUUUUGGUGGAAAGUAUUAUGUUACGCCGUUCGGAUCUGCACUU | -2.15
UCCUGUGCUACACAUCGUAUGUACCGAAUCGGGGCCCCCGGGCCCCCGGGGCCCCCGGGGAAAGUAUUAUGUUACGCCGUUCGGAUCUGC | -1.69
CAAGUCCUGUGCUACACAUCGUAUGUACCGAAUCGGUUUUGGUUUUGGUUUUGGGGAAAGUAUUAUGUUACGCCGUUCGGAUCUGCACUU | -1.59
GAGGAGCUGCUGCUGGAGCCCGAGCCGGAGCCCGAGCCCGAAGAGGAGCCGCCCCGGCCCCGCGCCCCCCCGGGAGCUCCGGGCCCUGGG | -1.27
AAGUCCUGUGCUACACAUCGUAUGUACCGAAUCAAAUUUAAACCCAAAUUUUUAAAAAAGUAUUAUGUUACGCCGUUCGGAUCUGCACUU | -0.865
UAACUUUAGAGGAGGAUCUGAUGGAUAUGGCAGUGGACGUGGAUUUGGGGAUGGCUAUAAUGGGUAUGGAGGAGGACCUGGACGUGGCAA | -1.04
AGUCCUGUGCUACACAUCGUAUGUACCGAAUCGGGAAAAAGGGUUUUUGGGAAAGGGAAAGUAUUAUGUUACGCCGUUCGGAUCUGCACU | -0.111
UGCGGGCCGAGAAUCGGGAGCUGGGCAAACGCGUACAGGCACUGCAGGAGGAGAGUCGCUACCUACGGGCAGUCUUAGCCAACGAGACUG | -1.73
GUUAAUUCCACCAUCCCCAUCACAGCAGAAGUUUUCAAGAAGCAUGGAGUGUACAACCCCAACAAAAUCUUCGGCGUGACGACCCUGGAC | 0.142

Some of these lines once more (series 4):
Strand | log2 enrichment
GAGGAGCUGCUGCUGGAGCCCGAGCCGGAGCCCGAGCCCGAAGAGGAGCCGCCCCGGCCCCGCGCCCCCCCGGGAGCUCCGGGCCCUGGG | -1.27
AAGUCCUGUGCUACACAUCGUAUGUACCGAAUCGGAAAAAAAGGUUUUUUUGGUGGAAAGUAUUAUGUUACGCCGUUCGGAUCUGCACUU | -2.15
UAACUUUAGAGGAGGAUCUGAUGGAUAUGGCAGUGGACGUGGAUUUGGGGAUGGCUAUAAUGGGUAUGGAGGAGGACCUGGACGUGGCAA | -1.04
UGCGGGCCGAGAAUCGGGAGCUGGGCAAACGCGUACAGGCACUGCAGGAGGAGAGUCGCUACCUACGGGCAGUCUUAGCCAACGAGACUG | -1.73
AGUCCUGUGCUACACAUCGUAUGUACCGAAUCGGGAAAAAGGGUUUUUGGGAAAGGGAAAGUAUUAUGUUACGCCGUUCGGAUCUGCACU | -0.111
GUUAAUUCCACCAUCCCCAUCACAGCAGAAGUUUUCAAGAAGCAUGGAGUGUACAACCCCAACAAAAUCUUCGGCGUGACGACCCUGGAC | 0.142
AAGUCCUGUGCUACACAUCGUAUGUACCGAAUCAAAUUUAAACCCAAAUUUUUAAAAAAGUAUUAUGUUACGCCGUUCGGAUCUGCACUU | -0.865
CAAGUCCUGUGCUACACAUCGUAUGUACCGAAUCGGUUUUGGUUUUGGUUUUGGGGAAAGUAUUAUGUUACGCCGUUCGGAUCUGCACUU | -1.59
UCCUGUGCUACACAUCGUAUGUACCGAAUCGGGGCCCCCGGGCCCCCGGGGCCCCCGGGGAAAGUAUUAUGUUACGCCGUUCGGAUCUGC | -1.69
